Assay results collected from several papers.
Each numbered part is a random draw from the data of one study; scales do not carry over between parts.

Sample 1 — technique: protein binding microarray; form: double-stranded DNA, one strand shown; sample: in vitro; tested at: not given; baseline: not given; direction: higher = stronger binding; measurement: E-score
Target: Histone acetyltransferase KAT6A, both winged helices, GST fusion (KAT6A, Homo sapiens, UniProt Q92794, residues 1-181)
Setting: 8-mer, flanks averaged, mean of 2 arrays, mostly near background
Residues (chain): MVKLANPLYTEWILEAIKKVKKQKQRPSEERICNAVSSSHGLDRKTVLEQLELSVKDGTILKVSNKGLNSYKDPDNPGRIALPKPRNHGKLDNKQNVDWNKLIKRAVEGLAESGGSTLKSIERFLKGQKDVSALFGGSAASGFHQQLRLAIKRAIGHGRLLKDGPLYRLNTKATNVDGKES
CTCGGTTC: -0.0934
GCTGATGA: 0.0049
GAAATGCA: -0.239
ACTCAATA: -0.156
ATTACTTG: -0.185
AGGCCGCA: 0.0918
CACGACCC: -0.0901
GGTCCTGA: 0.0325
AAACATCG: -0.114
CTCCATTC: -0.178
CAAGTATG: -0.0422
TCATAGGA: -0.159
GCCAGCGC: 0.258
CTTATAAA: -0.0567
ATGTTCGA: -0.0752
GTCTGCAA: -0.0696
CGCTTTTA: 0.292
GAGAGCAC: -0.0566
ACCCTGCT: -0.176
AACGACTG: -0.114
CACTCTGC: -0.222
ACATCTTG: -0.196
AACCCACA: -0.0796
ATGTAAAC: 0.0832

Sample 2 — technique: competition protein-binding microarray; form: double-stranded DNA, one strand shown; sample: in vitro; tested at: 2 µM; together with: Pho4 competitor, 0.05 µM; direction: higher = stronger binding; measurement: fluorescence intensity
Target: Centromere-binding protein 1, full length, His-tagged (CBF1, Saccharomyces cerevisiae, UniProt P17106, residues 1-351)
Sequence of UniProt P17106 (whole entry, looked up): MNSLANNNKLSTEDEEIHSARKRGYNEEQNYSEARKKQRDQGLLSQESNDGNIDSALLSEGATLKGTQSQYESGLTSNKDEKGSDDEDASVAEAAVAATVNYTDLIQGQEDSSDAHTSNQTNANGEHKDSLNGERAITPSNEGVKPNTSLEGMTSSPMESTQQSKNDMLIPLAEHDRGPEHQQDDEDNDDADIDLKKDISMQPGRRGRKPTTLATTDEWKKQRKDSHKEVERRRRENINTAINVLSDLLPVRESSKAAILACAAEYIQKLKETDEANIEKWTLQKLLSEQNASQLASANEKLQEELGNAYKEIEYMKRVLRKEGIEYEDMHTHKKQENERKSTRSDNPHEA
Setting: whole 60-bp probe, lowest competitor level
TCAGCTTAGCACAGACACGTTGTGGTCTGTAGGTCAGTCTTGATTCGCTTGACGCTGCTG: 75.1 a.u.
GGGTAAGGTCTTTTTCGCGTGCTTTTATTTTATTCAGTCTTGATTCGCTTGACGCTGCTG: 103 a.u.
CATACCCAACCTTTTCACGTGATATAAGATATTTGTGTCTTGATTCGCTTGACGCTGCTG: 3790 a.u.
TCTTTTCAGAGGCCCCATGTGGGCCCTTTCTTCCAAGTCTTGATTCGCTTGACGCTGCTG: 60.1 a.u.
GTCAATGCAGTCATCCTCGTGAAATCTGGAATGAATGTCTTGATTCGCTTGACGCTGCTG: 89.7 a.u.
GAGTTTTTGCATTTGCACGTGAATTAGTTCTTGGCCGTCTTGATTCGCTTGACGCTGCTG: 1320 a.u.
CGGGGTTAAGTTTGATCCGTGGGTGGCTTGCAGCAGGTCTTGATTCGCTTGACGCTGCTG: 78.3 a.u.
TGCTCCGTTGACATCTTCGTGGGTACTCATATCACTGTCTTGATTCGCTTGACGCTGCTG: 51.8 a.u.
CCGCCAAGAGAAATGCTCGTGACTCGTTGGCTCAATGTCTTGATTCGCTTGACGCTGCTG: 421 a.u.
CTTTCCCGATCTTTTCACGTGTAGTTAGCACATTTGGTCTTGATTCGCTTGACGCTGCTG: 680 a.u.
TTGGGATATTAGCGTCACAATGTTTTAACTATTTGGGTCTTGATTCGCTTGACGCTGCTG: 83.1 a.u.
GTCTTGTCTCATTGTCACATCACTTTCCCCACTTCAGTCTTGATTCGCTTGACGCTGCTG: 121 a.u.
AGATTATTACAAGTGGTCGTGATGGACGTAAAGTTTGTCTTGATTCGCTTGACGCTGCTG: 96.1 a.u.
ATATGCTTCCTTTGTCACGTGCAAATTCTGACTCCAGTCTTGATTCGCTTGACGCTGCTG: 8100 a.u.
ACTAGTAAGGGTAGTGGTGTGACGCTGACCCGATCGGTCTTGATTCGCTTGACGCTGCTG: 79.4 a.u.
TTATTCCCCAACAATCACGTTCCTTCTGCCAACATCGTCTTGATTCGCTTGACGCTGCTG: 244 a.u.
CGGGGTTAAGTTTGTCACATTACTTGCTTGCAGCAGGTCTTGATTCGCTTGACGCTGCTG: 112 a.u.
GAAACCTTTTCCTCTTGCTCACCAGCTTCATTCTCGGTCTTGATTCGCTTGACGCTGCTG: 56 a.u.
CCCTCAAGTTTCTCTTCTGGCGATTTGGGAATTTACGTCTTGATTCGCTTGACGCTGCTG: 66.9 a.u.

Sample 3 — technique: universal PBM; form: double-stranded DNA, one strand shown; sample: in vitro; tested at: not given; direction: higher = stronger binding; measurement: E-score
Target: Sal-like protein 4, full length isoform B (SALL4, Homo sapiens, UniProt Q9UJQ4-2, residues 1-616)
Setting: 8-mer, flanks averaged, mean of replicates
AGAACTCA: 0.0766
ACTTGAAG: 0.129
CACATGGC: -0.0869
CCTTCCTA: -0.0962
AAGTCAGG: -0.14
AACCTATG: 0.155
AGCGGTGA: -0.0999
ATAAAACC: 0.111
GAATATGA: 0.331
TAGGGTAA: 0.115
ATTCCGTC: -0.0188
CTGTCGAC: -0.0629
AATGGAGT: 0.106
ACAAACTG: -0.115
CTTGCCGC: -0.302
TCAATCGA: 0.0302
CTACTCAA: 0.168
AACCCCGG: -0.33
ACTGACAA: -0.00821
CCTCTATA: 0.13
GGCTTTTA: 0.0193
CGCTCCGC: -0.303
CAGTCCGA: -0.191
CATTGCAA: 0.111
GATCTTGC: 0.0888

Sample 4 — technique: RNA Bind-n-Seq; form: RNA; sample: in vitro; tested at: not given; setting: RNA with constant flanks, ends assumed; baseline: input RNA pool; direction: higher = stronger binding; measurement: bound/input enrichment
Target: RING finger protein unkempt homolog, zinc fingers 1-6, GST-SBP tag (UNK, Homo sapiens, UniProt Q9C0B0, residues 30-357)
Residues (chain): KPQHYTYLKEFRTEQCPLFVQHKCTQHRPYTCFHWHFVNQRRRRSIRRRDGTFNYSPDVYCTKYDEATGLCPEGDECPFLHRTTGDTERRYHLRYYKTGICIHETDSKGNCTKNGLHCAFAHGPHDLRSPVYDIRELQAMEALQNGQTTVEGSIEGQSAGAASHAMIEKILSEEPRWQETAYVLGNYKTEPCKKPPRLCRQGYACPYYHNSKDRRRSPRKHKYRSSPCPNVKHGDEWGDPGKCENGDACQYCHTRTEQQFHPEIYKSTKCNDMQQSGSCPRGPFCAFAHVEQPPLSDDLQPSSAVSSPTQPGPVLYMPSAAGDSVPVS
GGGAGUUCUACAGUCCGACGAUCACAGAUGAAGCUGACCUGGUUCUUGCAAAAGAAGCUAAUGUGAAAUGUCCACAAAUUGUGACCGCAUUUUAUGAAGAGAGACUGACAUGGCAUGCAUAUCCUGAGGAUGCGGAAAACAAACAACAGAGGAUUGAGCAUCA: 0.237 ratio
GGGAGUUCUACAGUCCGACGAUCGUAGGCUCUGUCCGUUCCCAUACCUCCAGCAGGGCCAGUGAGAAUCAGUCUCCCAGCAGCCGCAACUACUUCAGCCCCCGGGAGUCGACUGAUUUCUCCUCUACCUCCCAGGAUGCAUUUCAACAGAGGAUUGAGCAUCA: 0.081 ratio
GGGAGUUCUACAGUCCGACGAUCAUGUAUGUCUCCAUUCCUGUCUAUCUGUCUGAGUGCCUCAUUUUGUAAUCAUGACAAUCCUACCGAACCUUAGAUGGAAAUGAGUGACUAAGGCCUAGGGGUGUCUGUUUAGGAGUGAAUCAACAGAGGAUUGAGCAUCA: 0.395 ratio
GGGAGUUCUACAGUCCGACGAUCGCCAGCAAGCCGCAGACCAUUCAAGAAUCAACAGGUGGUAUAGUCGAAGUUUUACAUAAGGCCGAUUCAGAAGGAAUCUCACCAAACCGUACCAGUCACGCGGCACCUGCAGCCACGUCACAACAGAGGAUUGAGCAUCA: 0.165 ratio
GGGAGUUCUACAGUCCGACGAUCAGUCUUGUGAAUGAGACCACUUUGAUUAAAUACUCCAGGCUGCCAACCAUAAACAAGCACCGUUUCCGGUACUUUGUCUUGGAUAACAGUGUCAUCCUGGCAAUGCUGGAACAACCUCUUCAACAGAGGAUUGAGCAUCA: 0.0987 ratio
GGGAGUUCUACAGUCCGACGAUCUGUGUAUGUACUGGCAGUAUUAAAUUUAUUCAUCAAGAAUGCUUAGUUCAGUGGUUGAAACACCGUCGGAAAGAAUACUGUGAAUUAUGCAAGCACAGAUUUGCUUUCACACCAAUUUAUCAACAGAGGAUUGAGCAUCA: 0.898 ratio
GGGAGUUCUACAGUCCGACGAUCGAGGUAGAUCAAGAGCUCGUUGAACUACUAGUGAAAGAAACGGAAGCAAGAUUUCCAGAUGCCGCAAAUGGGUUUAUUGAGGAAAUAAUUCAUUUUAAGAAUUAUUAUGAUCUGAAUGUACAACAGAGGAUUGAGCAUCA: 0.222 ratio
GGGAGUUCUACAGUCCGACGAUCACAGUUUAGAUAUUCUUUUUAUUUUUUUUCUUUUCCCUCAAUCCUUUUUUAUUUUUAAAAACCGUUCUUUUGUAAUGUGGUGUUCAAAACGGAAUUGAAAACUGGCACCCCAUCUCUUUGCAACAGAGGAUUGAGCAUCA: 124 ratio
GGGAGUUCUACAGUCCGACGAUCGGACUUGAACAACUUACAAAGUCUCCGGUGGAAUUUGUAGAAUACAACAAGAUGCAACUCCGCAGGAUAUAUCCCAAGGGAACACGUGUGGAUUCAUCCAACUACAUGCCUCAACUCUUCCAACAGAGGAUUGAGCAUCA: 0.0926 ratio
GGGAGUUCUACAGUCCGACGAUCGCAUCACAGAGUGAACUGCCAUUAAGACAUCCAAGGUUUUAUCCAAAGCUGUUUGCUGGUAUCCGACAGAAGGCAGUGUCGAGCAGCCCUUCUGGAAAUGUUGCAUGGCCAGUGCUCUAGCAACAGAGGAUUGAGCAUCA: 0.112 ratio
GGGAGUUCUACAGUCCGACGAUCGAAGAUGAAGCCAAUAUAGCCUGGAAGUAUUACAAGUUCCCAAAGAAAAAAGAUGCCGAGUUUUUACCACCUCAACUUCCAAGUGAUAAAUUCAAGGAUGAUCCAGUUGGACCUUUUGGACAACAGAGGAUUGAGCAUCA: 0.602 ratio

Some of these lines once more (sample 2):
TGCTCCGTTGACATCTTCGTGGGTACTCATATCACTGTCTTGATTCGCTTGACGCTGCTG: 51.8 a.u.
CCGCCAAGAGAAATGCTCGTGACTCGTTGGCTCAATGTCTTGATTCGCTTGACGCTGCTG: 421 a.u.
CTTTCCCGATCTTTTCACGTGTAGTTAGCACATTTGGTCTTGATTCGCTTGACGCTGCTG: 680 a.u.
TTGGGATATTAGCGTCACAATGTTTTAACTATTTGGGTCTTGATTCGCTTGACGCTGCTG: 83.1 a.u.
GTCTTGTCTCATTGTCACATCACTTTCCCCACTTCAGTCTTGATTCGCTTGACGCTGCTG: 121 a.u.
AGATTATTACAAGTGGTCGTGATGGACGTAAAGTTTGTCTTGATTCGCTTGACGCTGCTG: 96.1 a.u.
ATATGCTTCCTTTGTCACGTGCAAATTCTGACTCCAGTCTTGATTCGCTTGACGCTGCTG: 8100 a.u.
ACTAGTAAGGGTAGTGGTGTGACGCTGACCCGATCGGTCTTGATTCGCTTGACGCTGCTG: 79.4 a.u.
TTATTCCCCAACAATCACGTTCCTTCTGCCAACATCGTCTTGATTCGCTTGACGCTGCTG: 244 a.u.
